Results from different studies.
Numbered parts are unrelated; each lists some results of a single study. Positions count from the first letter of the parent shown.

Series 1
Target: CCNB2, cyclin fold, Cln2 fusion (human)
Technique: yeast growth competition, sequencing
Matrix: yeast
Setting: weak parent motif
Relative to: not given
Direction: higher = stronger binding
Parent: SLBP docking peptide (human); ARYKRKLLINDFG; partner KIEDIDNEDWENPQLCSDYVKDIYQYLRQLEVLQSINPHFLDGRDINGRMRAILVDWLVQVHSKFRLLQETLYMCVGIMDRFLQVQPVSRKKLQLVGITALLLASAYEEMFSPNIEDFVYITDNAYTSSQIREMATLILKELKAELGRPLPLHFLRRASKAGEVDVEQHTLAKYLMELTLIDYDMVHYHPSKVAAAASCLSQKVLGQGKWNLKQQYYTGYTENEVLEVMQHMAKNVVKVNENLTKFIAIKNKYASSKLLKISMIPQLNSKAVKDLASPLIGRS
Substitution	normalised enrichment score
ARYKRKLLINNFG [D11N]	0.219
ARYKRKLLINDYG [F12Y]	1.17
ARYKRKLLANDFG [I9A]	0.346
ARYKRKGLINDFG [L7G]	0.847
ARYKRKLLIVDFG [N10V]	0.785

Series 2
Target: Ras GTPase-activating protein-binding protein 1, C-terminal RGG region (G3BP1, Homo sapiens, UniProt Q13283)
Sequence of UniProt Q13283 (whole entry, looked up): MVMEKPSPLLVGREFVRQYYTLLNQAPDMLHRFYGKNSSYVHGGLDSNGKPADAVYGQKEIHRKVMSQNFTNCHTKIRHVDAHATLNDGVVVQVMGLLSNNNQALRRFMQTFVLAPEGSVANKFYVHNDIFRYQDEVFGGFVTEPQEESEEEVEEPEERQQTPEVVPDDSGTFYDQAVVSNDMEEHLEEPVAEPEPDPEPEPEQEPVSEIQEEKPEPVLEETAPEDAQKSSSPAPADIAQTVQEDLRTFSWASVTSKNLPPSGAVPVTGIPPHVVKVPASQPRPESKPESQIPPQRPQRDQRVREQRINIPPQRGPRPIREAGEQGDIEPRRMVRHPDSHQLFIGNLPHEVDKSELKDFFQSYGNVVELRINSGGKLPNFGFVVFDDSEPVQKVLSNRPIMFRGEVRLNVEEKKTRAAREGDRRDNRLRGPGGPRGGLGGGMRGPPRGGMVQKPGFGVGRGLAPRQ
Technique: RNA Bind-n-Seq
Molecule type: RNA
Matrix: in vitro
Tested at: 1 µM
Setting: whole 134-nt RNA, ends assumed
Added: 150 mM KCl
Relative to: input library
Direction: higher = stronger binding
All sequences stand within: GGGAGUUCUACAGUCCGACGAUC … UGGAAUUCUCGGGUGUCAAGG
Sequence	log2 enrichment
UUGAGAUUGGGUGGAUUCCUAUCAUCUGGAAUUCUGACUCCUCGGGUCUCCUUCUCUAGGUAGCCCAGCAGCAGUGAAGAUGCAGACUGA	-1.74
UUGCUGUCACCCGCUGCCUGUCUGCAGGAUCCCGGAUUCCGUAUCAGGGGACCGAAAUUAGUCGGAAAAUAGGAAGCAGGUGCUCGCUUG	-1.64
ACCAUGCAGGUGGGCAUCUUUGGGAAGUGGGGCAAGGGGGGGAUAGGGAGGGGGGUAACACUUUGGGAACAGGUGGUCCCAGAAAGUUUC	-0.665
CCUCAAGUCCUGUGCUACACAUCGUAUGUACCGAAUCGGGAGGAGGGGAGGGGAAAGUAUUAUGUUACGCCGUUCGGAUCUGCACUUCCA	0.879
UGUGCUACACAUCGUAUGUACCGAAUCGGGUUUUUUUGGGGUUUUUUUGGGUUUUUUUGGGGAAAGUAUUAUGUUACGCCGUUCGGAUCU	-0.546

Series 3
Target: RNA binding protein fox-1 homolog 2, RRM domain, GST-SBP tag (RBFOX2, Homo sapiens, UniProt O43251-10, residues 100-194)
Technique: RNA Bind-n-Seq
Molecule type: RNA
Matrix: in vitro
Tested at: 365 nM
Setting: natural RNA segment, single round, ends assumed
Relative to: no-protein control
Direction: higher = stronger binding
All sequences stand within: GGGAGUUCUACAGUCCGACGAUC … UGGAAUUCUCGGGUGCCAA
Sequence	RBNS enrichment (R)
GGAUGUUUCCCUCACUGUGUUCUCUUCGUGGGUUGUUUCCUUGUGGGUCAUAGUCAUACCUUCUGAUGAGGUGGAGCCAACACCAGCAAAGUAUGAUGGCCCUGUAGCCU	0.965
GAGUCUCUCUGUCUUCUUCUUUCUUUGCCUGAUGCACAUCAAGGUAGAGUGCAUUCCGGUGUGGGUGCCAAUGAACUAGCUGCGAGCUGCUGUCAGAGUGGGAGCAGACU	0.364
UGAUGAAGUACAAGACAAAUACCCUGGGAAAAAAAAUGAAAGUAUGAGAAAUUGGCAUUUCUACAGCUGAAAUUCAAUGUAUCUGUUAGAGAUGUCUGGAAGGGUUACUU	0.994
CUGUGAAACGCCAUGAUUGUCUAAACAAGUCUCCCCUCUGCCCUGAUCCCUUUGUACCAAGUCAAUGGCCACUUGAAAGUUCUGUGGACUCCCUUGUGGCCUCAACCCGU	0.447
CUGCCUCCGUGGCUGGGAGACAUUCAUAACACAGAGGACUCAGUUCUGUUGGAAAGCCAGCAUGUGAGACCCUUCCACCAUGCCUCAUUCCAGCCCUCCUUGAGCUCACU	0.745

Single results of other studies
Substance	target	assay	system	setting	how to read	quantity	value
PhoQ, residues 284 288 289 292 302 303 AEGLLW	PhoP, residues 12 14 15 18 19 TTLRV (Escherichia coli, UniProt P23836)	Sort-seq, measured: YFP reporter	E. coli	PhoQ-PhoP variant library, added: 10 µM Mg2+	relative to: high Mg2+ state, higher = stronger signaling	fold induction	4.06

For quick reference, copied from above (series 1):
Substitution	normalised enrichment score
ARYKRKGLINDFG [L7G]	0.847
